Measured values from different studies.
Each line is one published result; not all experiments were run side by side. Values joined by “and” are separate records of one study, mostly repeats; a detail may differ. ± gives the spread as reported.

GWTLNSAGYLLGPHAVDNHRSFNDKHGFT-NH2 (C-amide) — mRNA level (RT-qPCR, refers to: Tgfb1; peptide, chicken, DSS-induced colitis, ileum; ip, 50 µM, unit not given; reference: Actb): 0.122 and 0.0758 and 0.0808 and 0.153 and 0.113 and 0.105 and 0.0876
CLCGGKGKKLGKG — ABTS radical scavenging (absorbance at 734 nm; peptide; 1 mg/mL, 5 min, room temperature): 0.923 fraction (0-1)
DAMGO — IC50 (PKA-RII phosphorylation, inhibitor, high-content microscopy; DRG neurons, rat, spinal cord injury; together with: forskolin 3 µM): 260 nM and 350 nM and 290 nM
mycosubtilin — maximum fusion (calcein leakage; DOPC/CHOL liposomes; concentration not given, together with: 20 wt% PEG-8000): 51 ± 12%
GWTLNSAGYLLGPRRIDHLLMIKEMPIARGREEAPGA / YAVDNHRSFNDKHGFT-NH2 (C-amide) — colon length (mouse, DSS-induced colitis; ip, 1.5 µM): 7 cm and 6.8 cm and 6.5 cm and 7.1 cm
insulin human — fold change (refers to: KALRN mRNA; uninfected mouse, brain; i.p., dose not given; reference: PBS): 1.24
polymyxin B — leakage time constant (calcein leakage; DOPC/DOPG/CHOL liposomes; concentration not given, together with: 20 wt% PEG-8000): 1 ± 1 min
CRQLRKGKFFSEGGSGGTSFEQFWAWLWP — relative tumour volume (peptide, BALB/c nude mice, 786-O xenograft; 2.5 mg/kg; reference: vehicle): decreased
Met-enkephalin-Arg-Phe — maximum possible effect (antinociception, hot plate; male ICR-CD1 mice; intracerebroventricular, 50 µg/animal, 15 min): 4.7% and 2.09% and 1.53% and 6.33% and 11.5% and 5.17% and 12.6% and 12.8%
aspterric acid — inhibition (root length; Arabidopsis thaliana Col-0 seeds; 6.25 µg/mL): 89.3%

Excerpt of the above:
Met-enkephalin-Arg-Phe — maximum possible effect (antinociception, hot plate; male ICR-CD1 mice; intracerebroventricular, 50 µg/animal, 15 min): 4.7% and 2.09% and 1.53% and 6.33% and 11.5% and 5.17% and 12.6% and 12.8%
aspterric acid — inhibition (root length; Arabidopsis thaliana Col-0 seeds; 6.25 µg/mL): 89.3%
